Experimental data pooled from the literature.
Each line is one published result; not all experiments were run side by side.

CCCCCCCCCC(=O)N[C@@H](Cc1c[nH]c2ccccc12)C(=O)N[C@H](CC(N)=O)C(=O)N[C@@H](CC(=O)O)C(=O)N[C@@H]1C(=O)NCC(=O)N[C@@H](CCCN)C(=O)N[C@@H](CC(=O)O)C(=O)N[C@H](C)C(=O)N[C@@H](CC(=O)O)C(=O)NCC(=O)N[C@H](CO)C(=O)N[C@@H]([C@H](C)CC(=O)O)C(=O)N[C@@H](CC(=O)c2ccccc2N)C(=O)O[C@@H]1C  MIC (Staphylococcus aureus; SH1000; with: phosphatidylglycerol, molar ratio 0.5): 1 µg/mL
N=C(N)c1ccc(OCCC(CCOc2ccc(C(=N)N)cc2)c2ccccc2)cc1 (stereo not drawn)  MIC (Escherichia coli; BW25113; in combination, lowest-FICI combination, with: vancomycin): 200 µg/mL
C=CCO/N=c1\cc2n(-c3ccc(Cl)cc3)c3ccccc3nc-2cc1Nc1ccc(Cl)cc1  MIC (Mycobacteroides abscessus; bacterial growth; clinical isolate): > 30 µM
CN[C@H](CC(C)C)C(=O)N[C@H]1C(=O)N[C@@H](CC(N)=O)C(=O)N[C@H]2C(=O)N[C@H]3C(=O)N[C@H](C(=O)N[C@H](C(=O)O)c4cc(O)cc(O)c4-c4cc3ccc4O)[C@H](O)c3ccc(c(Cl)c3)Oc3cc2cc(c3O[C@@H]2O[C@H](CO)[C@@H](O)[C@H](O)[C@H]2O[C@H]2C[C@](C)(N)[C@H](O)[C@H](C)O2)Oc2ccc(cc2Cl)[C@H]1O  MIC (Virgibacillus massiliensis; broth microdilution; DSM 28587): 0.17 µM
CCOC(=O)CNC(=O)CO/N=c1\cc2n(-c3ccc(Cl)cc3)c3ccccc3nc-2cc1Nc1ccc(Cl)cc1  MIC (Mycobacteroides abscessus; bacterial growth; clinical isolate): > 30 µM
O=C(O)c1ccc(NCc2cc(Br)ccc2O)cc1  MIC (Enterococcus): 64 µg/mL
C[C@H](NC(=O)CO/N=c1\cc2n(-c3ccc(Cl)cc3)c3ccccc3nc-2cc1Nc1ccc(Cl)cc1)C(=O)O  MIC (Mycobacteroides abscessus; bacterial growth; ATCC 19977): > 30 µM
CC1(C)S[C@@H]2[C@H](NC(=O)[C@H](N)c3ccccc3)C(=O)N2[C@H]1C(=O)O  MIC (Pseudomonas aeruginosa; clinical isolate RKI-No_497/15): > 16 µg/mL
CC1(C)S[C@@H]2[C@H](NC(=O)[C@H](N)c3ccc(O)cc3)C(=O)N2[C@H]1C(=O)O  MIC (Enterococcus): 16 µg/mL
C[C@H]1CC[C@H](NC(=O)CNc2ccc(Cl)cc2)CC1  MIC (Mycobacteroides abscessus; broth microdilution; 120 h): inactive
Clc1ccc(Nc2cc3nc4ccccc4n(-c4ccc(Cl)cc4)c-3c/c2=N\OCc2ccccc2)cc1  MIC (Mycobacteroides abscessus; bacterial growth; ATCC 19977): > 30 µM
CC1CCC(C(C)C)C(OC2=C(Cl)C(=O)c3ccccc3C2=O)C1 (stereo not drawn)  MIC (Bacillus cereus; broth microdilution; MTCC 430): 12 µg/mL
C#CCOC(=O)ON=C1C=CC(=C(C#N)c2ccccc2)C=C1  MIC (Candida parapsilosis; broth dilution; ATCC 22099; 48 h, 37 °C): 16 µg/mL
N=C(N)c1cccc(OCc2ccc(COc3cccc(C(=N)N)c3)cc2)c1  MIC (Escherichia coli; mcr-2 polymyxin-resistant; 20 h, compound alone): > 200 µg/mL
CCCCCCCCCC(=O)N[C@@H](Cc1c[nH]c2ccccc12)C(=O)N[C@H](CC(N)=O)C(=O)N[C@@H](CC(=O)O)C(=O)N[C@@H]1C(=O)NCC(=O)N[C@@H](CCCN)C(=O)N[C@@H](CC(=O)O)C(=O)N[C@H](C)C(=O)N[C@@H](CC(=O)O)C(=O)NCC(=O)N[C@H](CO)C(=O)N[C@@H]([C@H](C)CC(=O)O)C(=O)N[C@@H](CC(=O)c2ccccc2N)C(=O)O[C@@H]1C  MIC (Enterococcus; broth microdilution; VRE 155, Mueller-Hinton broth, Mg2+ 10 mg/L; 16 h, with: Ca2+ 10 mM): 0.125 µg/mL
OC(Cn1cncn1)(Cn1cncn1)c1ccc(F)cc1F  MIC (Candida parapsilosis; CP1): 1 µg/mL
CC1(C)SC2C(NC(=O)C(NC(=O)C3=C(O)C(Cc4ccc([N+](=O)[O-])cc4)NC3=O)c3ccccc3)C(=O)N2C1C(=O)O (stereo not drawn)  MIC (Escherichia coli; broth microdilution; ATCC 25922 wild type; with: clavulanic acid 6 µg/mL): 25 µg/mL
CC(=O)NC[C@H]1CN(c2ccc(N3CCOCC3)c(F)c2)C(=O)O1  MIC (Staphylococcus aureus; broth microdilution; MRSA NRS123 USA400): 1 µM
CC(=O)NC[C@H]1CN(c2ccc(N3CCOCC3)c(F)c2)C(=O)O1  MIC (Staphylococcus epidermidis; MRSE-8, methicillin-resistant): 1 µg/mL
CC(=O)N1CCN(c2ccc(OCC3COC(Cn4ccnc4)(c4ccc(Cl)cc4Cl)O3)cc2)CC1 (stereo not drawn)  MIC (Candida parapsilosis; broth dilution; ATCC 22099; 48 h, 37 °C): 8 µg/mL
COc1cc(C=O)ccc1OC1=C(Cl)C(=O)c2ccccc2C1=O  MIC (Bacillus cereus; broth microdilution; MTCC 430): 10 µg/mL
C=CC(=O)ON=C1C=CC(=C(C#N)c2ccccc2)C=C1  MIC (Candida parapsilosis; broth dilution; ATCC 22099; 48 h, 37 °C): 16 µg/mL
CC1(C)SC2C(NC(=O)C(NC(=O)C3=C(O)C(Cc4ccccc4)NC3=O)c3ccccc3)C(=O)N2C1C(=O)O (stereo not drawn)  MIC (Escherichia coli; broth microdilution; ATCC 25922 wild type; with: clavulanic acid 6 µg/mL): 6.25 µg/mL
O=C(O)CO/N=c1\cc2n(-c3ccc(Cl)cc3)c3ccccc3nc-2cc1Nc1ccc(Cl)cc1  MIC (Mycobacteroides abscessus; bacterial growth; ATCC 19977): > 30 µM
CC1(C)SC2C(NC(=O)C(NC(=O)C3=C(O)C(Cc4ccc(F)cc4)NC3=O)c3ccccc3)C(=O)N2C1C(=O)O (stereo not drawn)  MIC (Escherichia coli; broth microdilution; ATCC 25922 wild type; no clavulanic acid): 6.25 µg/mL
Cc1c(CN(C)C(=O)/C=C/c2cnc3c(c2)CCC(=O)N3)oc2ccccc12  MIC (Escherichia coli; broth microdilution; AR-0346): > 32 µg/mL
CO/N=c1\cc2n(-c3ccc(Cl)cc3)c3ccccc3nc-2cc1Nc1ccc(Cl)cc1  MIC (Mycobacteroides abscessus; bacterial growth; clinical isolate): > 30 µM
N=C(N)c1ccc(OCCCCCOc2ccc(C(=N)N)cc2)cc1  MIC (Escherichia coli; BW25113; in combination, lowest-FICI combination, with: vancomycin): 200 µg/mL
O=C(CO/N=c1\cc2n(-c3ccc(Cl)cc3)c3ccccc3nc-2cc1Nc1ccc(Cl)cc1)NCc1ccc(C(F)(F)F)cc1  MIC (Mycobacteroides abscessus; bacterial growth; clinical isolate): > 30 µM
N=C(N)c1ccc(OCc2ccc(-c3ccccc3)cc2COc2ccc(C(=N)N)cc2)cc1  MIC (Escherichia coli; mcr-2 polymyxin-resistant; 20 h, compound alone): 25 µg/mL
CNC(C)C1CCC(N)C(OC2C(N)CC(N)C(OC3OCC(C)(O)C(NC)C3O)C2O)O1 (stereo not drawn)  MIC (Pseudomonas aeruginosa; broth microdilution; clinical isolate RKI-No 485/15-1): > 8 µg/mL
O/N=c1\cc2n(-c3ccc(Cl)cc3)c3ccccc3nc-2cc1Nc1ccc(Cl)cc1  MIC (Mycobacteroides abscessus; bacterial growth; clinical isolate): > 30 µM
COc1ccccc1CNc1ccc(C(=O)O)cc1  MIC (Enterococcus): 128 µg/mL

Excerpt of the above:
CCOC(=O)CNC(=O)CO/N=c1\cc2n(-c3ccc(Cl)cc3)c3ccccc3nc-2cc1Nc1ccc(Cl)cc1  MIC (Mycobacteroides abscessus; bacterial growth; clinical isolate): > 30 µM
CCCCCCCCCC(=O)N[C@@H](Cc1c[nH]c2ccccc12)C(=O)N[C@H](CC(N)=O)C(=O)N[C@@H](CC(=O)O)C(=O)N[C@@H]1C(=O)NCC(=O)N[C@@H](CCCN)C(=O)N[C@@H](CC(=O)O)C(=O)N[C@H](C)C(=O)N[C@@H](CC(=O)O)C(=O)NCC(=O)N[C@H](CO)C(=O)N[C@@H]([C@H](C)CC(=O)O)C(=O)N[C@@H](CC(=O)c2ccccc2N)C(=O)O[C@@H]1C  MIC (Enterococcus; broth microdilution; VRE 155, Mueller-Hinton broth, Mg2+ 10 mg/L; 16 h, with: Ca2+ 10 mM): 0.125 µg/mL
O/N=c1\cc2n(-c3ccc(Cl)cc3)c3ccccc3nc-2cc1Nc1ccc(Cl)cc1  MIC (Mycobacteroides abscessus; bacterial growth; clinical isolate): > 30 µM
CC1(C)S[C@@H]2[C@H](NC(=O)[C@H](N)c3ccccc3)C(=O)N2[C@H]1C(=O)O  MIC (Pseudomonas aeruginosa; clinical isolate RKI-No_497/15): > 16 µg/mL
C=CC(=O)ON=C1C=CC(=C(C#N)c2ccccc2)C=C1  MIC (Candida parapsilosis; broth dilution; ATCC 22099; 48 h, 37 °C): 16 µg/mL
